Assay results gathered from unrelated publications.
Compare with care: the assays were run in different laboratories.

Under “time to undetectable level”, `O=c1[nH]c2ccccc2n1CCCCCN1CCN(c2ccc(F)cc2)CC1` is recorded as 240 min (C57BL/6 mouse, plasma and brain; subcutaneous, 5 mg/kg).
`COC(=O)c1ccc(-c2cn(Cc3cc(Cl)ccc3O[11CH3])nn2)cc1` — result for “time to homogeneous brain distribution”: 5 min (PET/CT; C57BL/6 mouse, brain).
For `CC[C@H](C)[C@H](NC(=O)[C@H](Cc1ccccc1)NC(=O)[C@H](CCC(=O)O)NC(=O)[C@H](CCCCN)NC(=O)[C@H](C)NC(=O)[C@H](C)NC(=O)[C@H](CCC(N)=O)NC(=O)CNC(=O)[C@H](CCC(=O)O)NC(=O)[C@H](CC(C)C)NC(=O)[C@H](Cc1ccc(O)cc1)NC(=O)[C@H](CO)NC(=O)[C@H](CO)NC(=O)[C@@H](NC(=O)[C@H](CC(=O)O)NC(=O)[C@H](CO)NC(=O)[C@@H](NC(=O)[C@H](Cc1ccccc1)NC(=O)[C@@H](NC(=O)CNC(=O)[C@@H](N)CCC(=O)O)[C@@H](C)O)[C@@H](C)O)C(C)C)C(=O)N[C@@H](C)C(=O)N[C@@H](Cc1c[nH]c2ccccc12)C(=O)N[C@@H](CC(C)C)C(=O)N[C@H](C(=O)N[C@@H](CCCCN)C(=O)NCC(=O)N[C@@H](CCCNC(=N)N)C(N)=O)C(C)C`, “time to undetectable” read at most 30 min (mouse, plasma; intraperitoneal, 500 µg).
For `O=C(CCCCC[N+]#[C][99Tc-5]([C]#[N+]CCCCCC(=O)N[C@H]1C(O)O[C@H](CO)[C@@H](O)[C@@H]1O)([C]#[N+]CCCCCC(=O)N[C@H]1C(O)O[C@H](CO)[C@@H](O)[C@@H]1O)([C]#[N+]CCCCCC(=O)N[C@H]1C(O)O[C@H](CO)[C@@H](O)[C@@H]1O)([C]#[N+]CCCCCC(=O)N[C@H]1C(O)O[C@H](CO)[C@@H](O)[C@@H]1O)[C]#[N+]CCCCCC(=O)N[C@H]1C(O)O[C@H](CO)[C@@H](O)[C@@H]1O)N[C@H]1C(O)O[C@H](CO)[C@@H](O)[C@@H]1O` (stereo partly drawn), “time to maximum tumour uptake” read under 30 min (SPECT; nude mouse with U87 MG xenograft).
`Cc1ccc(C2=C(c3ccc([18F])cc3)C(=O)OC2(C)C)cc1`: “time of maximal tumour uptake” about 1 h (dynamic PET/CT; female athymic nude mouse, SK-OV-3 xenograft; intraperitoneal, 1.5 h scan).
`CC1(C)CC[C@@]2(CO)C(=C3C=C[C@@H]4[C@@]5(C)CC[C@H](O)[C@@](C)(CO)[C@@H]5CC[C@@]4(C)[C@]3(C)C[C@@H]2O)C1` — result for “time of first detection”: 2 h (UHPLC-MS/MS; mouse, plasma; oral, 50 mg/kg of saikosaponin a).
`CN1C(=CC2=C(O)C(=CC3=[N+](CCC[N+](C)(C)C)c4ccc(F)cc4C3(C)C)C2=O)C(C)(C)c2ccccc21` — result for “time to peak signal-to-background ratio”: 1 to 2 h (mouse, duodenum and intestines).
`CCc1nc(N)nc(N)c1C#C[C@H](C)c1cc(-c2cc(C)nc(C)c2)ccc1Cl` — result for “time above MIC in plasma”: about 10 h (mouse, plasma; dose not given).
Under “time to baseline signal”, `CN(C)c1ccc2c(-c3cc(C(=O)N4CCN(CCCOc5ccc6nccc(C(=O)NCC(=O)N7CC(F)(F)C[C@H]7C#N)c6c5)CC4)ccc3C(=O)[O-])c3ccc(=[N+](C)C)cc-3oc2c1` is recorded as 24 h (intravital imaging; mouse B16-F10-GFP tumour, tumour tissue; intravenous, 1 µM, 100 µL).
